Measured values from different studies.
Protocols differ between the studies behind these lines. ± marks the error that the study gave.

CCCCCCCCCCCCCCCC(=O)N[C@@H](CCC(=O)NCCOCCOCCC(=O)NCCOCCOCCC(=O)NCCCC[C@H](NC(=O)[C@H](CC(=O)O)NC(=O)[C@H](CC(C)C)NC(=O)[C@H](Cc1ccc(O)cc1)NC(=O)[C@H](CCCCN)NC(=O)[C@H](CO)NC(=O)[C@H](Cc1ccc(O)cc1)NC(=O)[C@H](CC(=O)O)NC(=O)[C@H](CO)NC(=O)[C@@H](NC(=O)[C@H](Cc1ccccc1)NC(=O)[C@@H](NC(=O)CNC(=O)[C@H](CCC(N)=O)NC(=O)[C@@H](CO)NC(=O)[C@@H](N)Cc1c[nH]cn1)[C@@H](C)O)[C@@H](C)O)C(=O)N[C@@H](CCCNC(=N)N)C(=O)N[C@@H](CCCNC(=N)N)C(=O)N[C@@H](C)C(=O)N[C@@H](CCC(N)=O)C(=O)N[C@@H](CC(=O)O)C(=O)N[C@@H](Cc1ccccc1)C(=O)N[C@H](C(=O)N[C@@H](CCC(N)=O)C(=O)N[C@@H](Cc1c[nH]c2ccccc12)C(=O)N[C@@H](CC(C)C)C(=O)N[C@@H](CC(C)C)C(=O)N[C@@H](CC(N)=O)C(=O)N[C@H](C(=O)NCC(=O)NCC(=O)N1CCC[C@H]1C(=O)N[C@@H](CO)C(=O)N[C@@H](CO)C(=O)NCC(=O)N[C@@H](C)C(=O)N1CCC[C@H]1C(=O)N1CCC[C@H]1C(=O)N1CCC[C@H]1C(=O)N[C@@H](CO)C(N)=O)[C@@H](C)O)C(C)C)C(=O)O — serum enzyme activity (refers to: ALP; Sprague-Dawley rat, female; subcutaneous, 100 µg/kg once daily, 14 days): 78.8 ± 10.2 U/L
CC[C@H](C)[C@@H]1NC(=O)[C@@H](NC(=O)[C@H](CO)NC(=O)[C@@H](N)CCCNC(=N)N)CSSC[C@@H](C(=O)O)NC(=O)[C@H]([C@@H](C)O)NC(=O)CNC(=O)[C@@H]2CSSC[C@@H]3NC(=O)[C@H](CCC(N)=O)NC(=O)[C@H](Cc4ccccc4)NC(=O)[C@H](C)NC(=O)[C@H]([C@@H](C)O)NC(=O)[C@H](CSSC[C@H](NC(=O)[C@H](Cc4ccccc4)NC(=O)[C@H](CO)NC(=O)[C@H](CC(C)C)NC(=O)[C@H](CCCNC(=N)N)NC(=O)[C@H](Cc4ccc(O)cc4)NC(=O)[C@H](CCCCN)NC(=O)[C@H](CCSC)NC(=O)[C@H](CO)NC(=O)[C@H](Cc4cnc[nH]4)NC(=O)[C@H](CCCCN)NC3=O)C(=O)N[C@@H](CCCNC(=N)N)C(=O)N[C@@H](CCCCN)C(=O)N[C@@H]([C@@H](C)O)C(=O)N2)NC(=O)[C@H](CCCNC(=N)N)NC(=O)[C@H](CO)NC(=O)[C@H](CCCCN)NC(=O)[C@@H]2CCCN2C(=O)[C@H]([C@@H](C)CC)NC(=O)[C@H]([C@@H](C)O)NC(=O)[C@H](CC(=O)O)NC1=O — time to complete degradation (porcine simulated intestinal fluid): 6 h
Cc1oc2nc1C(=O)N[C@](C)(C(=O)OC(C)C)c1nc(c(C)o1)C(=O)N[C@](C)(C(=O)OC(C)C)c1nc(c(C)o1)C(=O)N[C@]2(C)C(=O)OC(C)C — selectivity index (SARS-CoV-2; Vero E6, NRC-03-nhCoV; baseline: CC50 over IC50): 20.8
CCc1ccccc1NC(=S)N/N=C/c1ccc(O)cc1O — viability (MCF7; 800 µM): < 30%
CCCCCCCCCCCCCCCC(=O)N[C@@H](CCC(=O)NCCCC[C@H](NC(=O)[C@H](CC(=O)O)NC(=O)[C@H](CO)NC(=O)[C@@H](NC(=O)[C@H](Cc1ccccc1)NC(=O)[C@@H](NC(=O)CNC(=O)[C@H](CCC(N)=O)NC(=O)[C@H](C)NC(=O)[C@@H](Cc1ccc(O)cc1)NC(C)=O)[C@@H](C)O)[C@@H](C)O)C(=O)N[C@@H](CO)C(=O)N[C@@H](CCCCN)C(=O)N[C@@H](Cc1ccc(O)cc1)C(=O)N[C@@H](CC(C)C)C(=O)N[C@@H](CC(=O)O)C(=O)N[C@@H](CCC(=O)O)C(=O)N[C@@H](CCCNC(=N)N)C(=O)N[C@@H](C)C(=O)N[C@@H](C)C(=O)N[C@@H](CCC(N)=O)C(=O)N[C@@H](CC(=O)O)C(=O)N[C@@H](Cc1ccccc1)C(=O)N[C@H](C(=O)N[C@@H](CCC(N)=O)C(=O)N[C@@H](Cc1c[nH]c2ccccc12)C(=O)N[C@@H](CC(C)C)C(=O)N[C@@H](CC(C)C)C(=O)N[C@@H](CCC(=O)O)C(=O)NCC(=O)NCC(=O)N1CCC[C@H]1C(=O)N[C@@H](CO)C(=O)N[C@@H](CO)C(=O)NCC(=O)N[C@@H](C)C(=O)N1CCC[C@H]1C(=O)N1CCC[C@H]1C(=O)N1CCC[C@H]1C(=O)N[C@@H](CO)C(N)=O)C(C)C)C(=O)O — AUC(0-inf) (male Wistar rat, plasma; subcutaneous, 0.02 mg/kg): 0.235 µg·h/mL
CC[C@H](C)[C@H](NC(=O)[C@H](CO)NC(=O)[C@H](Cc1ccc(O)cc1)NC(=O)[C@H](CC(=O)O)NC(=O)[C@H](CO)NC(=O)[C@@H](NC(=O)[C@H](Cc1ccccc1)NC(=O)[C@@H](NC(=O)CNC(=O)[C@H](CCC(=O)O)NC(=O)[C@@H](C)NC(=O)[C@@H](N)Cc1ccc(O)cc1)[C@@H](C)O)[C@@H](C)CC)C(=O)N[C@@H](C)C(=O)N[C@@H](CCSC)C(=O)N[C@@H](CC(=O)O)C(=O)N[C@@H](CCCCN)C(=O)N[C@H](C(=O)N[C@@H](Cc1c[nH]cn1)C(=O)N[C@@H](CCC(N)=O)C(=O)N[C@@H](CCC(N)=O)C(=O)N[C@@H](CC(=O)O)C(=O)N[C@@H](Cc1ccccc1)C(=O)N[C@H](C(=O)N[C@@H](CC(N)=O)C(=O)N[C@@H](Cc1c[nH]c2ccccc12)C(=O)N[C@@H](CC(C)C)C(=O)N[C@@H](CC(C)C)C(=O)N[C@@H](C)C(=O)N[C@@H](CCC(N)=O)C(=O)N[C@@H](CCCCN)C(=O)N1CCC[C@H]1C(=O)N[C@@H](CO)C(=O)N[C@@H](CO)C(=O)NCC(=O)N[C@@H](C)C(=O)N1CCC[C@H]1C(=O)N1CCC[C@H]1C(=O)N1CCC[C@H]1C(=O)N[C@@H](CO)C(N)=O)C(C)C)[C@@H](C)CC — resistin (HF-STZ diabetic mouse, plasma; continuous infusion, 100 nmol/kg/day, 4 weeks): 1.6 ± 0.1 ng/mL
Cc1oc2nc1C(=O)N[C@](C)(C(=O)NCCc1ccc(N(C)C)cc1)c1nc(c(C)o1)C(=O)N[C@](C)(C(=O)NCCc1ccc(N(C)C)cc1)c1nc(c(C)o1)C(=O)N[C@]2(C)C(=O)NCCc1ccc(N(C)C)cc1 — selectivity index (SARS-CoV-2; Vero E6, NRC-03-nhCoV; baseline: CC50 over IC50): 2.5
CC[C@H](C)[C@H](NC(=O)[C@H](CCCN)NC(=O)[C@H](CC(=O)O)NC(=O)[C@H](CC(C)C)NC(=O)C(C)(CC(C)C)NC(=O)[C@@H](NC(=O)[C@H](CO)NC(=O)[C@H](Cc1ccc(O)cc1)NC(=O)[C@H](CC(=O)O)NC(=O)[C@H](CO)NC(=O)[C@@H](NC(=O)[C@H](Cc1ccccc1)NC(=O)[C@@H](NC(=O)CNC(=O)[C@H](CCC(=O)O)NC(=O)C(C)(C)NC(=O)[C@@H](N)Cc1ccc(O)cc1)[C@@H](C)O)[C@@H](C)CC)[C@@H](C)CC)C(=O)N[C@@H](Cc1c[nH]cn1)C(=O)N[C@@H](CCC(N)=O)C(=O)NC(C)(C)C(=O)N[C@@H](CC(=O)O)C(=O)N[C@@H](Cc1ccccc1)C(=O)N[C@H](C(=O)N[C@@H](CCC(=O)O)C(=O)N[C@@H](Cc1ccc(O)cc1)C(=O)N[C@@H](CCCCNC(=O)COCCOCCNC(=O)COCCOCCNC(=O)CC[C@H](NC(=O)CCCCCCCCCCCCCCCCCCC(=O)O)C(=O)O)C(=O)N[C@@H](CC(C)C)C(=O)N[C@@H](CCC(=O)O)C(=O)NCC(=O)NCC(=O)N1CCC[C@H]1C(=O)N[C@@H](CO)C(=O)N[C@@H](CO)C(=O)NCC(=O)N[C@@H](C)C(=O)N1CCC[C@H]1C(=O)N1CCC[C@H]1C(=O)N1CCC[C@H]1C(=O)N[C@@H](CO)C(N)=O)C(C)C (stereo partly shown) — AUC(0-inf) (human, type 2 diabetes; subcutaneous, 25 mg single dose, geometric mean): 1200 µg·h/mL
CC[C@H](C)[C@H](NC(=O)[C@H](CCCCN)NC(=O)[C@H](CCCCN)NC(=O)[C@H](CC(C)C)NC(=O)[C@H](Cc1c[nH]c2ccccc12)NC(=O)CN)C(=O)NCC(=O)N[C@@H](CCCCN)C(=O)N[C@@H](CCCCN)C(=O)N[C@H](C(=O)N[C@@H](CCC(=O)O)C(=O)N[C@@H](CCCNC(=N)N)C(=O)N[C@H](C(=O)NCC(=O)N[C@@H](CCC(N)=O)C(=O)N[C@@H](Cc1c[nH]cn1)C(=O)N[C@H](C(=O)N[C@@H](CCCNC(=N)N)C(=O)N[C@@H](CC(=O)O)C(=O)N[C@@H](C)C(=O)N[C@H](C(=O)N[C@H](C(=O)N[C@@H](CCC(N)=O)C(=O)N[C@H](C(=O)N[C@H](C(=O)NCC(=O)N[C@H](C(=O)N[C@@H](C)C(=O)N[C@@H](CCC(N)=O)C(=O)N[C@@H](CCC(N)=O)C(=O)N[C@@H](C)C(=O)N[C@@H](C)C(=O)N[C@@H](CC(N)=O)C(=O)N[C@H](C(=O)N[C@@H](C)C(=O)N[C@@H](C)C(=O)N[C@H](C(=O)N[C@@H](CC(C)C)C(=O)N[C@@H](CCCCN)C(N)=O)[C@@H](C)O)C(C)C)C(C)C)[C@@H](C)CC)[C@@H](C)O)[C@@H](C)CC)[C@@H](C)O)[C@@H](C)O)C(C)C)[C@@H](C)CC — minimal haemolytic concentration (human erythrocytes): 1020 mg/L
CC[C@H](C)[C@@H]1NC(=O)[C@H](CCCNC(=N)N)NC(=O)[C@H](CO)NC(=O)[C@H](CCC(=O)O)NC(=O)[C@H](CC(=O)O)NC(=O)CNC(=O)CNC(=O)[C@H]([C@@H](C)O)NC(=O)[C@H](Cc2ccccc2)NC(=O)[C@H](CO)NC(=O)[C@H]([C@@H](C)O)NC(=O)[C@H](C)NC(=O)[C@@H]2CSSC[C@@H](C(=O)N[C@@H](Cc3ccc(O)cc3)C(=O)N[C@@H](Cc3ccccc3)C(=O)N[C@H](C(=O)N[C@H](C(=O)NCC(=O)O)[C@@H](C)O)[C@@H](C)O)NC(=O)[C@H]([C@@H](C)O)NC(=O)[C@H](CSSC[C@H](NC(=O)[C@H](CCC(=O)O)NC(=O)[C@H](CO)NC(=O)[C@H](CCCCN)NC(=O)[C@H](Cc3ccc(O)cc3)NC(=O)[C@@H]3CCCN3C(=O)[C@H](Cc3ccccc3)NC(=O)[C@H](CCCCN)NC(=O)[C@H](CCCNC(=N)N)NC(=O)[C@H](CCCCN)NC(=O)[C@H](CCCCN)NC(=O)[C@H](Cc3ccc(O)cc3)NC(=O)[C@@H]3CCCN3C(=O)[C@@H](NC(=O)[C@H](CC(=O)O)NC(=O)[C@H](CCCCN)NC(=O)[C@H](CCCCN)NC(=O)[C@@H](NC(=O)[C@@H](NC(=O)[C@@H](N)CCC(=O)O)C(C)C)[C@@H](C)CC)[C@@H](C)O)C(=O)N[C@@H](CC(C)C)C(=O)N[C@@H](CCCCN)C(=O)N[C@@H](C)C(=O)N2)NC(=O)[C@H](CCCCN)NC(=O)[C@H](Cc2ccccc2)NC(=O)[C@H](Cc2ccccc2)NC(=O)CNC(=O)[C@@H]2CCCN2C(=O)[C@H](CCCCN)NC(=O)CNC(=O)[C@H](CCC(=O)O)NC(=O)[C@H](CCC(N)=O)NC1=O — LD50 (Kunming mouse; iv, 24 h): ~0.85 mg/kg

Excerpt of the above:
CC[C@H](C)[C@H](NC(=O)[C@H](CCCN)NC(=O)[C@H](CC(=O)O)NC(=O)[C@H](CC(C)C)NC(=O)C(C)(CC(C)C)NC(=O)[C@@H](NC(=O)[C@H](CO)NC(=O)[C@H](Cc1ccc(O)cc1)NC(=O)[C@H](CC(=O)O)NC(=O)[C@H](CO)NC(=O)[C@@H](NC(=O)[C@H](Cc1ccccc1)NC(=O)[C@@H](NC(=O)CNC(=O)[C@H](CCC(=O)O)NC(=O)C(C)(C)NC(=O)[C@@H](N)Cc1ccc(O)cc1)[C@@H](C)O)[C@@H](C)CC)[C@@H](C)CC)C(=O)N[C@@H](Cc1c[nH]cn1)C(=O)N[C@@H](CCC(N)=O)C(=O)NC(C)(C)C(=O)N[C@@H](CC(=O)O)C(=O)N[C@@H](Cc1ccccc1)C(=O)N[C@H](C(=O)N[C@@H](CCC(=O)O)C(=O)N[C@@H](Cc1ccc(O)cc1)C(=O)N[C@@H](CCCCNC(=O)COCCOCCNC(=O)COCCOCCNC(=O)CC[C@H](NC(=O)CCCCCCCCCCCCCCCCCCC(=O)O)C(=O)O)C(=O)N[C@@H](CC(C)C)C(=O)N[C@@H](CCC(=O)O)C(=O)NCC(=O)NCC(=O)N1CCC[C@H]1C(=O)N[C@@H](CO)C(=O)N[C@@H](CO)C(=O)NCC(=O)N[C@@H](C)C(=O)N1CCC[C@H]1C(=O)N1CCC[C@H]1C(=O)N1CCC[C@H]1C(=O)N[C@@H](CO)C(N)=O)C(C)C (stereo partly shown) — AUC(0-inf) (human, type 2 diabetes; subcutaneous, 25 mg single dose, geometric mean): 1200 µg·h/mL
